Measured values gathered from unrelated publications.
Each line is one published result; not all experiments were run side by side.
Target: Metallo-beta-lactamase type 2 (blaNDM-1, Klebsiella pneumoniae, UniProt C7C422)
Sequence of UniProt C7C422 (whole entry, looked up): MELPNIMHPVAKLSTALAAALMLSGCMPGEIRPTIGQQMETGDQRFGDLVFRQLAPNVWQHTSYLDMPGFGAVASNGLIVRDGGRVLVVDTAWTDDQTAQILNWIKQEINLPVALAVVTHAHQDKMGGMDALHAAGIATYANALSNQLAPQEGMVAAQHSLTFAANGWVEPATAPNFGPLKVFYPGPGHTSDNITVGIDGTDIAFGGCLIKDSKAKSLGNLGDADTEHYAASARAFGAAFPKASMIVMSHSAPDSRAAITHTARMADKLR
Observed: enzyme activity
Action: inhibitor

`CN[C@H](CC(C)C)C(=O)N[C@H]1C(=O)N[C@@H](CC(N)=O)C(=O)N[C@H]2C(=O)N[C@H]3C(=O)N[C@H](C(=O)N[C@H](C(=O)O)c4cc(O)cc(O)c4-c4cc3ccc4O)[C@H](O)c3ccc(c(Cl)c3)Oc3cc2cc(c3O[C@@H]2O[C@H](CO)[C@@H](O)[C@H](O)[C@H]2O[C@H]2C[C@](C)(NCc3ccc(C(=O)OCCCCCCN(Cc4ccccn4)Cc4ccccn4)cc3)[C@H](O)[C@H](C)O2)Oc2ccc(cc2Cl)[C@H]1O` gave an IC50 of 0.6 µM (absorbance).
`O=C(O)CNCP(=O)(O)O` gave an IC50 of 75 µM (fluorescence).
The IC50 of `Cn1nnc(-c2ccccc2NC(=O)CCS)n1` is reported as 19.5 µM (fluorescence; with preincubation).
`O=C(O)c1nccn1Cc1ccccc1` gave an IC50 of 66.7 µM (fluorescence; with preincubation).
`N[C@@H](CN[C@@H](CN[C@@H](CC(=O)O)C(=O)O)C(=O)O)C(=O)O` gave an IC50 of 12000 µM.
For `CC(C)Cc1cc(C(=O)O)nc2[nH][nH]c(=O)c12`, the IC50 was > 1000 µM (fluorescence; with preincubation).
`Cn1nnc(-c2cccc(NC(=O)CCS)c2)n1` gave an IC50 of 4.19 µM (fluorescence; with preincubation).
The IC50 of `O=C(O)CC(O)(CC(=O)O)C(=O)O` is reported as 132 µM (fluorescence).
`CC(C)C1=CCC(C(=O)O)C(C(=O)O)C1` (centres unmarked) gave an IC50 of 491 µM (fluorescence; with preincubation).
The IC50 of `CN(C)c1ccc2c(c1)C(=O)N(C(CS)C(N)=O)C2=O` (centres unmarked) is reported as 10 µM (pH 7).
The IC50 of `Cn1nnc(-c2cccc(NC(=O)CS)c2)n1` is reported as 3.22 µM (fluorescence; with preincubation).
For `NC(=O)CN(CC(=O)O)CC(=O)O`, the IC50 was 2.3 µM (fluorescence).
The IC50 of `O=C(O)c1nc[nH]c1C(=O)Nc1ccccc1` is reported as > 1000 µM (fluorescence; with preincubation).
The IC50 of `CCCn1nnc(-c2cccc(NC(=O)[C@H](C)CS)c2)n1` is reported as 2.37 µM (fluorescence; with preincubation).

Excerpt of the above:
The IC50 of `Cn1nnc(-c2cccc(NC(=O)CS)c2)n1` is reported as 3.22 µM (fluorescence; with preincubation).
